# Assay results from different studies.
# Several values in a cell are separate wells, animals, samples, runs or records. Numbers after ± are the reported error.
# Cell line: HL-60
Structure (SMILES),assay,setting,IC50
[Ru+2].c1ccc(-c2cccc(-c3ccccn3)n2)nc1.c1ccc2nc(-c3ccc4ccccc4n3)ccc2c1.c1ccncc1,cell growth or viability,dark,30.8 µM and ~30 µM
Cc1cc(/C=C/C#N)cc(C)c1Oc1cc(Nc2ccc(C#N)cn2)nc2ccncc12,,48 h,> 120 µM
Cn1c2ccc(Cl)c(=O)c-2nc2ccccc21,"cell growth or viability, CCK-8",72 h,3.56 µM
COc1c(O)cc2oc3cc(O)c4c(c3c(=O)c2c1CCC(C)(C)O)OC(C)(C)CC4,cell growth or viability,48 h,> 40 µM
C/C1=C\CC[C@@]2(C)O[C@H]2[C@H]2OC(=O)[C@@H](CSC(=S)N3CCCC3)[C@@H]2CC1,"cell growth or viability, MTT",72 h,7.7 µM
COc1c(O)cc2oc3c(Cl)c(O)c(CC=C(C)C)c(O)c3c(=O)c2c1CC=C(C)C,cell growth or viability,48 h,> 40 µM
Cc1cc(C=O)cc(C)c1Oc1cc(Nc2ccc(C#N)cn2)nc2ccncc12,,48 h,41.1 ± 14.2 µM
CC#N.[Ru+2].c1ccc(-c2cccc(-c3ccccn3)n2)nc1.c1ccc(-c2ccccn2)nc1,cell growth or viability,dark,> 100 µM
CC(C)CCc1c(O)cc2oc3cc(O)c(O)c(CCC(C)C)c3c(=O)c2c1O,cell growth or viability,48 h,13.7 µM
COc1cccc2c(=O)c3c(NCCCCCC(=O)Nc4ccccc4N)ccc([N+](=O)[O-])c3[nH]c12,"cell growth or viability, MTT",72 h,0.62 µM
C/C1=C\CC[C@@]2(C)O[C@H]2[C@H]2OC(=O)[C@@H](CSC(=S)N3CCN(CCO)CC3)[C@@H]2CC1,"cell growth or viability, MTT",72 h,5.5 µM
C=C1C(=O)OC2C1CCC1(C)CC1CCC1(C)OC21 (stereo not shown),"cell growth or viability, resazurin",,4.4 µM
C/C1=C\CC[C@@]2(C)O[C@H]2[C@H]2OC(=O)[C@@H](CSC(=S)N(C)C)[C@@H]2CC1,"cell growth or viability, MTT",72 h,7.3 µM
Cc1ccc(C(=O)C2Sc3nnc(-n4nc(C)cc4C)n3NC2c2ccc(Cl)cc2)cc1 (racemic),"cell growth or viability, imaging",72 h,> 100 µM
Cc1cc(C=O)cc(C)c1Oc1cc(Nc2ccc(C#N)cn2)nc2cnccc12,,48 h,> 126 µM
CC(C)=CCn1c2cccc(=O)c-2nc2ccccc21,"cell growth or viability, CCK-8",72 h,2.59 µM
COc1c(O)cc2oc3cc4c(c(O)c3c(=O)c2c1CCC(C)C)CC(O)O4 (stereo not shown),cell growth or viability,48 h,6.9 µM
C/C1=C\CC[C@@]2(C)O[C@H]2[C@H]2OC(=O)[C@@H](CSC(=S)N(C)c3ccccn3)[C@@H]2CC1,"cell growth or viability, MTT",72 h,38.9 µM
CCN(CC)CCN1C(=O)c2ccc3c4cccc5c(N6CCNCC6)ccc(c6ccc(c2c36)C1=O)c54,"cell growth or viability, SRB",72 h,4.8 µM
